Measurements from different studies.
Numbered parts are unrelated; each lists some results of a single study. Changes are numbered by the printed parent chain.

Set 1
Target: Interferon regulatory factor 5, full length, phosphomimetic (IRF5, Homo sapiens, UniProt Q13568-2, residues 1-514, K96S/S451D/S453D/S456D/S462D)
Technique: protein-binding microarray
Form: double-stranded DNA, one strand shown
Matrix: in vitro
Concentration: 250 nM
Notes: 60-bp whole probe
With: salmon DNA 0.4 mg/ml
Relative to: random background probes
Reading: higher = stronger binding
Shared flanks, not repeated: GCCTAGCAC … GTCTTGATTCGCTTGACGCTGCTG
Strand	log fluorescence
TACGGTTTCGGTTTCGGGACGTGCTAG	10.4 z-score
GACGGTTTCGGGACTGGAGACGTGCTA	4.74 z-score
TTAGATATCAGTCTCGAGTAGTGCTAG	1.12 z-score
GACGGTTTCGGGTTTCCGGACGTGCTA	7.34 z-score
GACGACCTCAGTTTCGAGACGTGCTAG	4.61 z-score
CTTTAACTCATTCTCTGTTTGTGCTAG	0.896 z-score
TCATCTCTGAAGACTCTCACTGTGCTA	0.482 z-score
TAAGGACTGCTTTTCCTTTAGTGCTAG	0.267 z-score
TCCTGTGTCTTAAATAGGGCAGTGCTA	-0.089 z-score
TTTCTTTTGCTTGTTCTTAGCGTGCTA	5.47 z-score
CCACATTTGATAAATCTTTGTGTGCTA	0.495 z-score
TTAGGTCTCCTTCTCCTTGAGTGCTAG	-0.353 z-score
TCATAACTTATTCTCTAACTGTGCTAG	0.86 z-score
GATGGTTTCGGGACTGGGGACGTGCTA	5.93 z-score
TTAGGTATCGGTCACGGTTAGTGCTAG	7.04 z-score
TTAGAACTGGAGTTTCGATTAGTGCTA	8.06 z-score
CCAGGAAAAGGGATTCAGTTGTGCTAG	-0.318 z-score
TCTCTTTTTGCTTTCTTTATGTGCTAG	2.71 z-score
TTAGAACTGGGGTTTAGATTAGTGCTA	-0.188 z-score

Set 2
Target: ABI1, truncated, D143A, DHFR fusion (Arabidopsis thaliana)
Technique: DHFR PCA, deep sequencing
Matrix: yeast
Notes: methotrexate growth selection, single substitutions
With: (+)-ABA 0 µM
Relative to: wild-type fitted maximum
Reading: higher = stronger binding
Parent: PYL1, truncated, DHFR fusion (Arabidopsis thaliana); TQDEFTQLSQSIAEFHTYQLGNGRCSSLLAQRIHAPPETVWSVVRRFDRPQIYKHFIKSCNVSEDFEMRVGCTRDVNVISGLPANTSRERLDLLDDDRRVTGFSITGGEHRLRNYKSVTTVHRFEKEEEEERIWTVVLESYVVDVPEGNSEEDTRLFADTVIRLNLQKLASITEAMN; partner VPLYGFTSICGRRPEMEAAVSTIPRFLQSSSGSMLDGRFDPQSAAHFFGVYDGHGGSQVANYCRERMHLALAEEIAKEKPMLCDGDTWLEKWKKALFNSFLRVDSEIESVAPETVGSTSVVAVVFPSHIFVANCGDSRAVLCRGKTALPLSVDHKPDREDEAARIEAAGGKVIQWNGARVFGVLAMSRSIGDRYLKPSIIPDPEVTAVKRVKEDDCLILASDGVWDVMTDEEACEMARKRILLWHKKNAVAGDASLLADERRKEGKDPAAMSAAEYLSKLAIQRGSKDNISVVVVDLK
Substitution	relative binding score [%]
L91Q	-0.667
T101C	19.1
I162Y	-4.58
T86P	6.82
D96C	-6.85
K168E	-1.06
D159E	2.27
V142K	-11.6
G108Y	-1.28
G23W	-0.687
S171H	26.1
A13E	36
N114S	1.51

Set 3
Target: CCND1, cyclin fold, Cln2 fusion (human)
Technique: yeast growth competition, sequencing
Matrix: yeast
Notes: strong parent motif
Relative to: not given
Reading: higher = stronger binding
Parent: RBL2 docking peptide (human); STTRRRLFVENDS; partner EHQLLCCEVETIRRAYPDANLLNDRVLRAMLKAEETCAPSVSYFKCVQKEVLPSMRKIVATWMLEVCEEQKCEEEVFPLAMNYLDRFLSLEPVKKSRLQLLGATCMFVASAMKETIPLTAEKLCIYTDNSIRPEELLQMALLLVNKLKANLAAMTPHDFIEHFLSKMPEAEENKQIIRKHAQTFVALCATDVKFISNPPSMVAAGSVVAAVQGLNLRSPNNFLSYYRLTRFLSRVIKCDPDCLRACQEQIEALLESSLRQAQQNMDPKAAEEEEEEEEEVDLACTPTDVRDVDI
Substitution	normalised enrichment score
S1K	0.451
F8Y	0.173
R6N	0.485
R4M	0.346
R6H	0.00367
N11E	1.19
R4G	-0.383
T3N	-0.308
R5W	0.0646
T2F	1.51
T2M	1.15
R6M	0.742
T3S	-0.0517
R4E	0.681
S1H	1.01
S13H	1.22
D12M	0.419
N11A	0.358
E10R	-0.00108
R5K	0.437

Set 4
Target: RNA binding protein fox-1 homolog 2, RRM domain, GST-SBP tag (RBFOX2, Homo sapiens, UniProt O43251-10, residues 100-194)
Technique: RNA Bind-n-Seq
Form: RNA
Matrix: in vitro
Concentration: 365 nM
Notes: natural RNA segment, single round, ends assumed
Relative to: no-protein control
Reading: higher = stronger binding
Target sequence (chain): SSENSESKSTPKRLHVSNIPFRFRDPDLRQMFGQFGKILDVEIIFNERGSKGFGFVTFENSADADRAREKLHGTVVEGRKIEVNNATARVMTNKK
Strand	RBNS enrichment (R)
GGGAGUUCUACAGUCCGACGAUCAUGCCCCACCCCAGCUCUCUUUCCCUUCUGGGUGUCUUUGCUGGGAGGGGGCUGUGUUGUGAGCCCUCCCGGUUCUCACCUCGCCUGGCACUUAACCACACCCUGGUUUUUGGAAUUCUCGGGUGCCAA	0.279
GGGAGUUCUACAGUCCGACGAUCCAACAUAGAGUUUAAGUAUCCAGUAGUGAUUUGUAAACUUGUUUUUCAUUUGAAGCUGAAUAUAUACGUAGUCAUGUUUAUGUUGAGAACUAAGGAUAUUCUUUAGCAAGUGGAAUUCUCGGGUGCCAA	0.602
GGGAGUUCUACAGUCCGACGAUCCCGCCCCAGUGCUGAUGGAGAUGCCACUUUCGUGUGACUGCGAACAUUAAAGCACAAAAAAAUCCAACCUGGAGUUGUGUGAUUUUGAUACCAAAGUAAGUUCACUUUUCUGGAAUUCUCGGGUGCCAA	0.359
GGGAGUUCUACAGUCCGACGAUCUUUAAAACUUGAGCCCUGGACCUUUUGUCCUAUGUGUGUGGAUUCCAGGGCAACUCUAGCAUCAGAGCAAAAGCCUUGGGUUUCUCGCAUUCAGUGGCCUAUCUCCAGAUUGGAAUUCUCGGGUGCCAA	0.48
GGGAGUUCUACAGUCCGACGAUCUGUCUGGAGCAGAGGCAAACAUCUGACUUCAUUCUUAGCCCCAAGCUGCCAUUUCUGAGUCCUUGAGAGGCUGAGAAGGCUCUAGCUUUGUACUGUAUUCUUACUGUGUGUGGAAUUCUCGGGUGCCAA	0.291
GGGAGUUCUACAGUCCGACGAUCUAGAUUUGUACAAAUGCUUUUUUUGUCCGUCCUCGUGGGGUUUUUUUUCUCCCCCUUUUCUUUGUUGUUUUCGUUGUUGUUGAUAACAAACUGGAAACCUGUCUCUCUCUUGGAAUUCUCGGGUGCCAA	0.591
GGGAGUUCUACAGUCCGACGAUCCCUUUACUGCUUUGCGCAUCUCAGAUGCUAACUUGGUUCUUUUUCCAGAAGCCUUUGUAUUGGUUAAAAAUUAUUUUCCAUUGCAGAAGCAGCUGGACUAUGCAAAAAGUUGGAAUUCUCGGGUGCCAA	0.353
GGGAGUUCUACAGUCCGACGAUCAAACCCAAAACAAACAAACAAGACGAAGGGCAGCACUGGGAAGGUUUUGUAACCUUUAGUGGGUUCCACGGUUGAGAUUUAGCACUGGAGCCAGGCAUGGUGGUAUACUCUGGAAUUCUCGGGUGCCAA	1.03
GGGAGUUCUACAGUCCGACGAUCGGCGUGGCCCCUGCCAACAGGCUGGGGUUGGGAGGCCUCUCUGGGCCUGGAGGUGGGGGUGGGGGCAGCCAAGUCCAGCCACUCUUCACCUGGCUCCCUGCUCUGGGCCCUGGAAUUCUCGGGUGCCAA	0.159
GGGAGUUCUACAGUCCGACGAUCAAAAGUAAUUUAUUCUGUCAAGAAAUUAAAAAUAGGCUUUGUGUAUGGUUAAACUGUAAAUCUUAUGUUUACAAAAAUACUGUAAUCUUCAGGAAAUCACUGUAUUAGGAUGGAAUUCUCGGGUGCCAA	0.41
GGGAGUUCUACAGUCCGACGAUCCAGAAGCCAAGAGACCUUAUUAACUAGGCUAUAUUUUUCUUAACUUGAUCUGAAAUCCACAAUUAGACCACAAUGCACCUUUGGUUGUAUCCAUAAAGGAUGCUAGCCUGUGGAAUUCUCGGGUGCCAA	0.459
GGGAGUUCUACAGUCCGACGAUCUAUUUAAUUUUUUGCCACAUAUUUAUUUAAAGGCGAGCAAUAUUUUCUUGGUCACAAUAUUUUUUAGUGGAAUUCCUCUCAAGGUUUUUAUACUCCUGUGUAAUAAGACUUGGAAUUCUCGGGUGCCAA	0.621

For quick reference, copied from above (set 1):
Strand	log fluorescence
GACGGTTTCGGGACTGGAGACGTGCTA	4.74 z-score
TTAGATATCAGTCTCGAGTAGTGCTAG	1.12 z-score
GACGGTTTCGGGTTTCCGGACGTGCTA	7.34 z-score
GACGACCTCAGTTTCGAGACGTGCTAG	4.61 z-score
CTTTAACTCATTCTCTGTTTGTGCTAG	0.896 z-score
TCATCTCTGAAGACTCTCACTGTGCTA	0.482 z-score
TAAGGACTGCTTTTCCTTTAGTGCTAG	0.267 z-score
TCCTGTGTCTTAAATAGGGCAGTGCTA	-0.089 z-score
TTTCTTTTGCTTGTTCTTAGCGTGCTA	5.47 z-score
CCACATTTGATAAATCTTTGTGTGCTA	0.495 z-score
